Measurements of several laboratories.
A part holds a random share of what one study measured. Positions count from the first letter of the parent shown.

Sample 1 — target: CREBL2, bZIP domain (human); method: DHFR protein complementation; matrix: yeast; reference: wild-type JUN-FOS pair; reading: higher = stronger binding; quantity: binding fitness
Setting: single substitutions, most at no-binding floor
Starting sequence: JUN, bZIP domain (human); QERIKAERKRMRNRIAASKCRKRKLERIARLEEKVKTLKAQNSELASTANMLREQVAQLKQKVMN; partner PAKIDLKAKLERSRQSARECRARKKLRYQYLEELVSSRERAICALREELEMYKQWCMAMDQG
Change = K34G; value = -1.43 natural log
Change = L52M; value = -1.53 natural log
Change = L52V; value = -1.57 natural log
Change = V56N; value = -1.57 natural log
Change = K39L; value = -1.54 natural log
Change = L45Q; value = -1.51 natural log
Change = E32Q; value = -1.37 natural log
Change = T48K; value = -1.51 natural log
Change = E44F; value = -1.52 natural log
Change = A49F; value = -1.24 natural log
Change = R30C; value = -1.42 natural log
Change = A46Q; value = -1.54 natural log
Change = S47K; value = -1.32 natural log
Change = R53H; value = -1.53 natural log
Change = Q58P; value = -1.47 natural log
Change = V35K; value = -1.39 natural log

Sample 2 — method: RNA Bind-n-Seq; molecule type: RNA; matrix: in vitro; tested at: 100 nM; reference: input RNA pool; reading: higher = stronger binding; quantity: bound/input enrichment
Target: RING finger protein unkempt homolog, zinc fingers 1-6, SBP tag (UNK, Homo sapiens, UniProt Q9C0B0, residues 30-357)
UniProt Q9C0B0, sequence (30-357, looked up): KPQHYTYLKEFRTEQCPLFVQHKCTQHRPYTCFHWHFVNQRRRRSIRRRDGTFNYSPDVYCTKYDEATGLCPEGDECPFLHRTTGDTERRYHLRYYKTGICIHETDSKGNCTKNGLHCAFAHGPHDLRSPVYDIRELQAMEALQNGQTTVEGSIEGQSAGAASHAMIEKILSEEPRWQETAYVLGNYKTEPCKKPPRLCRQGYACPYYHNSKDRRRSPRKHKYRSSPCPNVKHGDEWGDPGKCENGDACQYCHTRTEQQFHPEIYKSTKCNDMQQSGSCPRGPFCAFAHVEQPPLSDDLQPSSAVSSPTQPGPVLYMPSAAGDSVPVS
Setting: RNA with constant flanks, vertebrate orthologous sites, ends assumed
Shared flanks, not repeated: GGGAGUUCUACAGUCCGACGAUC … CAACAGAGGAUUGAGCAUCA
Strand = CUUCAACUGGUAUUUUCAAAGGACCACAGGAAACUUUCUUUUUUCUUUUUUUUACAGUUUAGUCCUGUCUGGUUUCUACAUGGAAGACUGAAACUUUCAUGCUUAUUGUUAAAUGUGUUU; value = 0.58 ratio
Strand = AGAACAUUUUAACCAAGAAUCUGAAGGUAGAAAUACAGGACCAUGGUUAUCUUCCUCAUUUAGAAAUAGAUGCACACCUUUGUUUUCUAGAAGGAGGCGAGAGGGAAGAGAUGAGUCUUC; value = 0.672 ratio
Strand = GCACAUGCCGCUAUCACCAAAAGCAAACUGCCACUUUUCAAAUUUCAUUCAGAGCCGUUUUAGUGUUUCCUAUUCCCUACCCUUCCCACUGCUUUCAAUGAUGAAAUAUCCUAAGUUCUC; value = 2.57 ratio
Strand = UAAAAGAAUCAGAGCAGCAUGGGCUGUGGAAAAAUGAGCUUUGCAUUUUUUAUAUUUAAAUAGGAUACUUUUAUAUGAUGGGUGCUUUGAGUGUGAAUGCAGCAAGCUUUCCUUUUCAGA; value = 1.09 ratio
Strand = CUUUCUUGUCUUUUGACCUCAUUUCUUUAUUUUUAUCUUCAUUUUAUUUUCUUUCUUUUUCUAGUGUUGUUACCCACGCCAUUUUAUGUCUCCUUCACUGAAGGGCUAGAGUUUUAACUU; value = 7.96 ratio
Strand = AAACUUGUAUUGUGGCAUAUAGUCAACAUGGAAGUAGACCAGCUCUGCCGAUUUGAAAUUUAGAUUUUUUAAUUAUGUACUGGGGACAGGUUUUUGUCGCUUUACAUUGCUUCCUAGUUU; value = 3.95 ratio
Strand = GGUUUCUAGUGCUUAUGACAGUUCUGAAAUCCUAUUUAUUUGUAGAUGUAAGUUUGUAUAUAGUAAACCUCACGUUGCUGAAGUUUUCAUCUUGGGGGACAAGUUUGAAUUUUGUUUUGA; value = 0.732 ratio
Strand = AUUGCCUACAAUAAUGAAAACCUACAGGAAUUUUUUAUUUUUCAUUUUCCCCUUAGGCAUAGUCUUUUUUCCCCAGGCAGAUCAUUCUGAGUGUGCGAGUGUGUGUGCACAUGUUACAAA; value = 0.785 ratio
Strand = GCCAUGAAAGAGCAGCCCUUCUCCCAGCCCCCCUUUCACUAGGAGAUACAAACGUUACUAUAGAAGAGCAAUUAAACUCAAUAAAUUUAUCUUUUCAGGAUGAUCCAGACUCCAGUACCA; value = 1.1 ratio
Strand = AUCUCUCAUUUUGUAUGUCCAAAAAAGGUUUUGAAUUUUUGAAUAAUUGCUGGUUUUAGUUAGCUCUGCCCUCAUGAAGUAUUACUAUAAUUCACCACAAACAGAUAUCUGUCUGAAUUA; value = 0.582 ratio
Strand = UUACAGUCAUUGAUGGACUCUAUUUUUUUAUUAUUACUUGGACCUUGGUCGUUUUUAUACUAGCAAAACGUCUUGUUUUAAUUUGUGUUUUUUUUUUUUUUGGCGGGGAGGGAGUGAACU; value = 5.59 ratio

Sample 3 — target: CCNE1, cyclin fold, Cln2 fusion (human); method: yeast growth competition, sequencing; matrix: yeast; setting: strong parent motif; reference: not given; reading: higher = stronger binding; quantity: normalised enrichment score
Starting sequence: PKMYT1 docking peptide (human); SFEPRNLLSLFED
Change = E12K; value = 1.12
Change = L10P; value = 0.346
Change = L7Y; value = 0.399
Change = R5D; value = 1.16
Change = L7N; value = -0.00305
Change = S1R; value = 1.43
Change = L7R; value = 0.114
Change = L8W; value = 0.889
Change = L8I; value = 1.57
Change = S9R; value = 2.07
Change = R5P; value = 0.598
Change = E12Q; value = 1.86
Change = P4T; value = 0.824
Change = P4Y; value = 0.65
Change = S9D; value = 1.55
Change = R5S; value = 1.06
Change = F2Q; value = 0.0248
Change = P4M; value = 1.86
Change = P4N; value = 0.417
Change = S1Q; value = 1.65
Change = E12Y; value = 1.88
Change = F2R; value = 0.707
Change = F2T; value = 1.3
Change = P4W; value = 1.16
Change = S9Y; value = 2.37

Sample 4 — method: protein binding microarray; molecule type: double-stranded DNA, one strand shown; matrix: in vitro; tested at: not given; reference: not given; reading: higher = stronger binding; quantity: E-score
Target: Histone acetyltransferase KAT6A, both winged helices, GST fusion (KAT6A, Homo sapiens, UniProt Q92794, residues 1-181)
Setting: 8-mer, flanks averaged, mean of 2 arrays, mostly near background
Construct (chain): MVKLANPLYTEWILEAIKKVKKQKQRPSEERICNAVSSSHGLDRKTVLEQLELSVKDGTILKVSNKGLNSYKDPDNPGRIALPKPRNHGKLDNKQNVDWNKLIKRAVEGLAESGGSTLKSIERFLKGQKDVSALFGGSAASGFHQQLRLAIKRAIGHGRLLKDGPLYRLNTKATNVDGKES
Strand = CCTATGAG; value = -0.217
Strand = CAAAGAAC; value = -0.0204
Strand = CACCGGTA; value = 0.136
Strand = AACGTTTA; value = 0.0115
Strand = CTCGACAA; value = -0.13
Strand = AGTCAGCG; value = 0.0335
Strand = ACAGATCA; value = -0.0333
Strand = CACTTCAA; value = -0.055
Strand = CAGTTAGA; value = -0.127
Strand = GGCGAGTA; value = 0.128
Strand = AGCAAGTA; value = -0.158
Strand = ACTGGCCA; value = -0.193
Strand = AGTCGTGA; value = -0.181
Strand = CATGCGGA; value = 0.143
Strand = CGTTTTGC; value = 0.13
Strand = ATTACGAC; value = -0.0135
Strand = AGGGCCGC; value = 0.253
Strand = ACCCGCTA; value = 0.19
Strand = CGACGCCC; value = 0.272
Strand = TACGCTAA; value = 0.147
Strand = AAATCTTC; value = -0.0405

Sample 5 — method: protein-binding microarray; molecule type: double-stranded DNA, one strand shown; matrix: in vitro; tested at: 0.8 µM; setting: whole 60-bp probe, no competitor; reading: higher = stronger binding; quantity: fluorescence intensity; shared flanks, not repeated: … GTCTTGATTCGCTTGACGCTGCTG
Target: Centromere-binding protein 1, full length, N-terminal tag (CBF1, Saccharomyces cerevisiae, UniProt P17106, residues 1-351)
UniProt P17106, sequence (whole entry, looked up): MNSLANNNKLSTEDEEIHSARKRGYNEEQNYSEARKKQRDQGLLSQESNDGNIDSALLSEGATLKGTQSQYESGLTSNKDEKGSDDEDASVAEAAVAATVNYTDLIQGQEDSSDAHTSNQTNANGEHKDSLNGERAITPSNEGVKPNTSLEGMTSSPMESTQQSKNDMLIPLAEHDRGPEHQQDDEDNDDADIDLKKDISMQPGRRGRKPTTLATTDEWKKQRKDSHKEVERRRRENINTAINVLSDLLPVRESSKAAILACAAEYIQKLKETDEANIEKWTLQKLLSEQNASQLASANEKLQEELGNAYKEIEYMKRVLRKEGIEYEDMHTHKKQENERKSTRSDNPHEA
Strand = TGTACGAAGCTATACGTGGTCTCTATAGTAGTTAGG; value = 502 a.u.
Strand = CTACATTTAGTCAATCACGTCAACCTGTCTAAATTC; value = 602 a.u.
Strand = TGTACGAAGCTATGTCATGTGCCTATAGTAGTTAGG; value = 1680 a.u.
Strand = GAAAAGCCACGCCATGTGATTAACCTTGCTTGATAG; value = 2280 a.u.
Strand = CTAGGGTTTTTTGTTCACGCGGGCCGCAGTTGTTTC; value = 600 a.u.
Strand = CTATTGCCAGCCCGTCATCAGTAGGACCCTTTTTTC; value = 539 a.u.
Strand = CTATGAGACATTTCTGATGTACTTCCACTTCCTTTC; value = 474 a.u.
Strand = GAAGTAAGCCTCGAGGTCACGAGGATATTATTTTAG; value = 3430 a.u.
Strand = GAATTTAAAGTTAACATCACCGCTGAATTACATTAG; value = 491 a.u.
Strand = GAACTTTGTGTGTACCATCACGTTTTTTGTTAATAG; value = 2130 a.u.
Strand = CTAGATGCTTGGGATCACGTATGCCGTTAACTCTTC; value = 603 a.u.
Strand = GAAGAGATTTGCTAGGTGATGACGACGGTGATGTAG; value = 545 a.u.
Strand = TGTACGAAGCTATTGCACGTCATTATAGTAGTTAGG; value = 596 a.u.
Strand = CCTAACTACTATAGCTGCGTGGCATAGCTTCGTACA; value = 489 a.u.
Strand = CTAAAGTTACCGTGTCACCTTCACAGTTTTCTTTTC; value = 538 a.u.
Strand = GAAACTGGCAGCAATGGTCATCAGTGGGCTCATTAG; value = 505 a.u.
Strand = CTATTTTGTATGGAAACCGTGATGAGAAATCCGTTC; value = 921 a.u.
Strand = CCTAACTACTATATTCATGTGAAATAGCTTCGTACA; value = 526 a.u.
Strand = GAAATGAGTAAGAGGCACATGCACTAGAGCATATAG; value = 682 a.u.
Strand = CCTAACTACTATAATCACCCACGATAGCTTCGTACA; value = 511 a.u.
Strand = CCTAACTACTATATACACGTCAGATAGCTTCGTACA; value = 520 a.u.
Strand = GAAGAATCACTTTAAAACGTGGCCCCACCCGCTTAG; value = 569 a.u.
Strand = GAAGTCAAGCATTGAAACGTGCAACATGAATATTAG; value = 643 a.u.
Strand = GAAGTATATGATTGCCACGAAATAATCGTCGATTAG; value = 517 a.u.
Strand = GAAATAGTTTAGCATTGCGTGGAGGGATACTGATAG; value = 505 a.u.

Repeated from above (sample 3):
Change = E12Q; value = 1.86
Change = E12Y; value = 1.88
Change = R5P; value = 0.598
Change = R5S; value = 1.06
Change = F2Q; value = 0.0248
Change = R5D; value = 1.16
